Results collected from several papers.
Each line is one published result; not all experiments were run side by side. “And” joins repeats or separate records; there may be more than shown. ± marks the error that the study gave.

Compound	tested on	test	system	setting	how to read	endpoint	value
O=C(NCC1OC2CCC=CCCC2O1)c1ccc(COCCOCCOCC[18F])cc1 (centres unmarked)	–	–	healthy female BALB/c nude mice, spleen	intravenous, 7.4 MBq per mouse, 15 min	–	tissue uptake	3.1 ± 0.2 %ID/g
CC(NS(=O)(=O)c1ccc(CCC(=O)N2CCN(C)CC2)cc1)c1ccccc1 (centres unmarked)	Trypanosoma cruzi	reporter mRNA translation, inhibitor, item: Renilla luciferase mRNA	cell-free extract	concentration not given, test 2	baseline: positive over negative control	translation activity	123% and 149%
N#C[C@@H]1CC(F)(F)CN1C(=O)CNC(=O)c1ccnc2c(NC(=O)[C@H](CCCCNC(=O)CCOCCOCCOCCOCCOCCOCCNC(=O)CN3CCN(CC(=O)[O-])CCN(CC(=O)[O-])CCN(CC(=O)[O-])CC3)NC(=O)CCCc3ccc(I)cc3)cccc12.[177Lu+3]	–	–	mouse, U-87 MG tumour xenograft, brain	4 h	–	tissue uptake	0.22 ± 0.25 %ID/g
CC[C@H](C)[C@H](NC(=O)C[C@H](NC(=O)CN1CCN2CCN(CC1)CC(=O)[O][Al]([18F])[O]C(=O)C2)C(=O)O)C(=O)N[C@H]1CCc2cccc3c2N(C1=O)[C@H](C(=O)NCc1cn[nH]n1)C3	–	–	C57BL/6J mice, MC-38 tumour, anti-PD-1 treated, heart	0.5 h	–	tissue uptake	0.62 ± 0.05 %ID/g
COc1cccc(OC)c1-c1cc(C(=O)NC2(C(=O)O)C3CC4CC(C3)CC2C4)nn1-c1ccc(C(=O)N(C)CCCN(C)CCCN(C)C(=O)[C@H](CCCCNC(=O)[C@H](CC(C)C)NC(=O)C2OC2C(=O)O)NC(=O)CN2CCN(CC(=O)[O-])CCN(CC(=O)[O-])CCN(CC(=O)[O-])CC2)cc1C(C)C.[177Lu+3] (mixture of isomers)	–	–	mouse, HT-29 xenograft, kidney	24 h post injection	–	tissue uptake	8.7 %ID/g
N#C[C@@H]1CC(F)(F)CN1C(=O)CNC(=O)c1ccnc2c(NC(=O)CCOCCOCCOCCOCCOCCOCCNC(=O)[C@H](CCCCNC(=O)CN3CCN(CC(=O)[O-])CCN(CC(=O)[O-])CCN(CC(=O)[O-])CC3)NC(=O)CCCc3ccc(I)cc3)cccc12.[177Lu+3]	–	–	mouse, U-87 MG tumour xenograft, salivary gland	48 h	–	tissue uptake	0.43 ± 0.14 %ID/g
[11CH3]N1CCC(NC(=O)c2cc(-c3c(O)cc(O)cc3Oc3ccc([N+](=O)[O-])cc3)on2)CC1	–	–	Wistar rat, female, healthy, kidneys	intravenous, 60 min	–	tissue uptake	2.1 ± 0.4 %ID
COc1cccc(OC)c1-c1cc(C(=O)NC2(C(=O)O)C3CC4CC(C3)CC2C4)nn1-c1ccc(C(=O)NCCNC(=O)[C@H](CCCCNC(=O)[C@H](CC(C)C)NC(=O)C2OC2C(=O)O)NC(=O)CN2CCN(CC(=O)[O-])CCN(CC(=O)[O-])CCN(CC(=O)[O-])CC2)cc1C(C)C.[177Lu+3] (mixture of isomers)	–	–	mouse, HT-29 xenograft, lung	4 h post injection	–	tissue uptake	2.1 %ID/g
O=C(O)CCCOc1ccc([18F])cc1-c1cc(-c2ccccc2C(F)(F)F)n(-c2ccccc2)n1	–	–	mouse, bone	intravenous, dose not given, 360 min	–	tissue uptake	2.31 ± 0.34 %ID/g
COc1cccc(OC)c1-c1cc(C(=O)NC2(C(=O)O)C3CC4CC(C3)CC2C4)nn1-c1ccc(C(=O)N(C)CCOCCN(C)C(=O)[C@H](CCCCNC(=O)[C@H](CC(C)C)NC(=O)C2OC2C(=O)O)NC(=O)CN2CCN(CC(=O)[O-])CCN(CC(=O)[O-])CCN(CC(=O)[O-])CC2)cc1C(C)C.[177Lu+3] (mixture of isomers)	–	–	mouse, HT-29 xenograft, brain	4 h post injection	–	tissue uptake	0.18 %ID/g
CC(C)Cc1ccc(C(C)C(=O)N[C@@H](CCCCNC(=O)CCOCCOCCOCCOCCOCCOCCNC(=O)CN2CCN(CC(=O)[O-])CCN(CC(=O)[O-])CCN(CC(=O)[O-])CC2)C(=O)Nc2cccc3c(C(=O)NCC(=O)N4CC(F)(F)C[C@H]4C#N)ccnc23)cc1.[177Lu+3] (some centres unmarked)	–	–	mouse, U-87 MG tumour xenograft, salivary gland	4 h	–	tissue uptake	12.7 ± 3.16 %ID/g
COc1ccc(C(=O)OC2CCN(C)CC2)cc1	Trypanosoma cruzi	reporter mRNA translation, inhibitor, item: Renilla luciferase mRNA	cell-free extract	concentration not given, test 2	baseline: positive over negative control	translation activity	98.3%
Cc1nc(N)nc2c1C(=O)N[C@@H](c1ccc(F)cc1-c1cccc(OCC[18F])n1)C2	–	ex vivo biodistribution	C57BL/6 mice, lungs	intravenous, 1 MBq, 30 min	–	tissue uptake	1.06 ± 0.05 %ID
COc1cccc(OC)c1-c1cc(C(=O)NC2(C(=O)O)C3CC4CC(C3)CC2C4)nn1-c1ccc(C(=O)N(C)CCOCCOCCN(C)C(=O)[C@H](CCCCNC(=O)[C@H](CC(C)C)NC(=O)C2OC2C(=O)O)NC(=O)CN2CCN(CC(=O)[O-])CCN(CC(=O)[O-])CCN(CC(=O)[O-])CC2)cc1C(C)C.[177Lu+3] (mixture of isomers)	–	–	mouse, HT-29 xenograft, muscle	72 h post injection	–	tissue uptake	0.12 %ID/g

Excerpt of the above:
Compound	tested on	test	system	setting	how to read	endpoint	value
CC[C@H](C)[C@H](NC(=O)C[C@H](NC(=O)CN1CCN2CCN(CC1)CC(=O)[O][Al]([18F])[O]C(=O)C2)C(=O)O)C(=O)N[C@H]1CCc2cccc3c2N(C1=O)[C@H](C(=O)NCc1cn[nH]n1)C3	–	–	C57BL/6J mice, MC-38 tumour, anti-PD-1 treated, heart	0.5 h	–	tissue uptake	0.62 ± 0.05 %ID/g
COc1cccc(OC)c1-c1cc(C(=O)NC2(C(=O)O)C3CC4CC(C3)CC2C4)nn1-c1ccc(C(=O)N(C)CCCN(C)CCCN(C)C(=O)[C@H](CCCCNC(=O)[C@H](CC(C)C)NC(=O)C2OC2C(=O)O)NC(=O)CN2CCN(CC(=O)[O-])CCN(CC(=O)[O-])CCN(CC(=O)[O-])CC2)cc1C(C)C.[177Lu+3] (mixture of isomers)	–	–	mouse, HT-29 xenograft, kidney	24 h post injection	–	tissue uptake	8.7 %ID/g
